Published values gathered from unrelated publications.
Numbers after ± are the reported error.

SMILES	cell line	observed	method	time	setting	IC50
CC[C@@]12SS[C@]3(C(=O)N1C)[C@@H](O)[C@]1(C45c6ccccc6N[C@@H]4N4C(=O)[C@@]6(CC)SS[C@@]4(C(=O)N6C)[C@H]5O)c4ccccc4N[C@@H]1N3C2=O (stereo partly drawn)	MDA-MB-435	cell growth or viability	SRB	–	–	0.1 µM
CCC/C=C1\OC(=O)C2=CC3CCC21[C@]1(OC(=O)c2ccccc21)[C@@H]3CCC (stereo partly drawn)	Hepa-1c1c7	cytotoxicity	crystal violet	48 h	–	2.9 ± 0.1 µM
CN[C@H](C(=O)N[C@H](C(=O)N(C)[C@H](c1noc(=O)[nH]1)C(C)C)C(C)C)C(C)(C)c1ccccc1	Jurkat	cell growth or viability	MTT	–	–	> 10 µM
CCC/C=C1\OC(=O)C2=C1CC[C@@H](O)[C@@H]2O	Hepa-1c1c7	cytotoxicity	crystal violet	48 h	–	> 20 µM
CCCC(=O)N(C(=O)CCC)C1=C(Cl)C(=O)c2ccccc2C1=O	BALB/c 3T3 clone A31	cytotoxicity	MTT	48 h	–	21.7 ± 1.45 µM
CCC/C=C1\OC(=O)C23C=CCCC12C1(OC(=O)c2ccccc21)C3CCC (stereo not drawn)	Hepa-1c1c7	cytotoxicity	crystal violet	48 h	–	> 20 µM
CC(O)[C@@]12SS[C@]3(C(=O)N1C)[C@@H](O)[C@]1([C@@]45c6ccccc6N[C@@H]4N4C(=O)[C@]6(C)SS[C@]4(C(=O)N6C)[C@H]5O)c4ccccc4N[C@@H]1N3C2=O (stereo partly drawn)	MDA-MB-435	cell growth or viability	SRB	–	–	0.48 µM
O=C(/C=C/C=C/c1ccc([N+](=O)[O-])cc1)c1ccc(Cl)cc1	Vero	cytotoxicity	MTT	24 h	–	696 µM
CN1C(=O)[C@@]23C[C@]4([C@@]56c7ccccc7N[C@@H]5N5C(=O)[C@]7(C)SS[C@]5(C(=O)N7C)[C@H]6O)c5ccccc5N[C@@H]4N2C(=O)[C@]1(C)SS3	SF-268	cell growth or viability	SRB	–	–	0.04 µM
CON=C(N)c1ccc(-c2ccc(-c3ccc(C(N)=NOC)cc3)o2)cc1	HEK-293T	cell growth or viability	resazurin	–	–	57.9 µM
O=S(=O)([O-])C(F)(F)F.OCc1ccnc(-c2cc(CO)ccn2)c1.[Ru+2].c1cc[cH-]c1.c1ccc(P(c2ccccc2)c2ccccc2)cc1	HEK293 overexpressing BCRP	cell growth	MTT	48 h	–	19 µM
CC1(C)O[C@@H]1COc1c2occc2cc2ccc(=O)oc12	NIH3T3	cell growth or viability	MTT	24 h	–	70.9 µM
CC(C)OC(=O)[C@@H](N)Cc1ccc(OP2(=O)CO[C@@H](Cn3ccc(N)nc3=O)CO2)cc1 (mixture of isomers)	HFF	cytotoxicity	–	–	TFA salt	> 100 µM
CC(C)=CCOc1c2occc2cc2ccc(=O)oc12	NIH3T3	cell growth or viability	MTT	24 h	–	92.4 µM
CC[C@@]12SS[C@]3(C(=O)N1C)[C@@H](O)C1(C45c6ccccc6N[C@@H]4N4C(=O)[C@]6([C@@H](C)O)SS[C@]4(C(=O)N6C)[C@H]5O)c4ccccc4N[C@@H]1N3C2=O (stereo partly drawn)	MDA-MB-435	cell growth or viability	SRB	–	–	0.08 µM

Repeated from above:
SMILES	cell line	observed	method	time	setting	IC50
CC[C@@]12SS[C@]3(C(=O)N1C)[C@@H](O)[C@]1(C45c6ccccc6N[C@@H]4N4C(=O)[C@@]6(CC)SS[C@@]4(C(=O)N6C)[C@H]5O)c4ccccc4N[C@@H]1N3C2=O (stereo partly drawn)	MDA-MB-435	cell growth or viability	SRB	–	–	0.1 µM
